# Assay results pooled from the literature.
# Protocols differ between the studies behind these lines. “And” joins repeats or separate records; there may be more than shown. ± marks the error that the study gave.
# Sequence of UniProt P51956 (whole entry, looked up): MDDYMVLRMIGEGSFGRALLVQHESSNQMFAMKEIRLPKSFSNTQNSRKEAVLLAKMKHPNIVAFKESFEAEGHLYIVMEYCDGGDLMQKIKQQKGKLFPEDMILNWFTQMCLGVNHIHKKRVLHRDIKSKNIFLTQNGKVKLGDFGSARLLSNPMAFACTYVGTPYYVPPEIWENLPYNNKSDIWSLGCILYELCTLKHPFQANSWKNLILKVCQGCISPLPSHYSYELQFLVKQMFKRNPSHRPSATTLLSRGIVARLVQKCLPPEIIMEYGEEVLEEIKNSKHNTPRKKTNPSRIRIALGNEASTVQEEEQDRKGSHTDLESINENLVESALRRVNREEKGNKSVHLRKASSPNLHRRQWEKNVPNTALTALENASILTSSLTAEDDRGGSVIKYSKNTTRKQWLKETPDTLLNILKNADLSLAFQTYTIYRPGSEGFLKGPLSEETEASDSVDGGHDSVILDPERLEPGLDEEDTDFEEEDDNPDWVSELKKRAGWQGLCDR
# Sequence of UniProt P14867 (whole entry, looked up): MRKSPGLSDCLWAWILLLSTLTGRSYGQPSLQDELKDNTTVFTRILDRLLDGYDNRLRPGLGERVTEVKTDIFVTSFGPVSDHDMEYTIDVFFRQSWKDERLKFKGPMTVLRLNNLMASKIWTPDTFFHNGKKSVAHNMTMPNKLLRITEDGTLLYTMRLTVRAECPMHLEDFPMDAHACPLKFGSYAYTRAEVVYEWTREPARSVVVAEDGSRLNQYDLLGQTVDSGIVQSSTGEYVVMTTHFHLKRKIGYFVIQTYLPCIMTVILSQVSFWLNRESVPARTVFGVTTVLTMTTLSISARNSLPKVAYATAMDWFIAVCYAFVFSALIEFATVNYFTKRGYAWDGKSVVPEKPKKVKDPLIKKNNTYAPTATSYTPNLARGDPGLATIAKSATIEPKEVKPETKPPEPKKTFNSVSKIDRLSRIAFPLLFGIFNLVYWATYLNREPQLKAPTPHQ
# Sequence of UniProt P47870 (whole entry, looked up): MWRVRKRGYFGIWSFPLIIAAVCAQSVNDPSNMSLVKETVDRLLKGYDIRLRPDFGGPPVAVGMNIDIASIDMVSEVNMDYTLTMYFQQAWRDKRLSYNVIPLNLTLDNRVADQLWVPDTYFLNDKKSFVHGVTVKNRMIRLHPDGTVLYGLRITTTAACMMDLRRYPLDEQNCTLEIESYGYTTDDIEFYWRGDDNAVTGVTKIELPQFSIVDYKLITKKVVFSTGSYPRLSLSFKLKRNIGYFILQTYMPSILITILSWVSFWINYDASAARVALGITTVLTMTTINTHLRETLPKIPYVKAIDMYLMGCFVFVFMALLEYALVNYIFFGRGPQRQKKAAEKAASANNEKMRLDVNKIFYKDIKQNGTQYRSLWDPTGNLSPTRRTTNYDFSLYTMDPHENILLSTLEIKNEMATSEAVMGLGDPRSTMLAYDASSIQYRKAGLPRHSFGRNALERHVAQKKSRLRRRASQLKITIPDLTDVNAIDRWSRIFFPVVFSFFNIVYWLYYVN
# Sequence of UniProt P17948 (whole entry, looked up): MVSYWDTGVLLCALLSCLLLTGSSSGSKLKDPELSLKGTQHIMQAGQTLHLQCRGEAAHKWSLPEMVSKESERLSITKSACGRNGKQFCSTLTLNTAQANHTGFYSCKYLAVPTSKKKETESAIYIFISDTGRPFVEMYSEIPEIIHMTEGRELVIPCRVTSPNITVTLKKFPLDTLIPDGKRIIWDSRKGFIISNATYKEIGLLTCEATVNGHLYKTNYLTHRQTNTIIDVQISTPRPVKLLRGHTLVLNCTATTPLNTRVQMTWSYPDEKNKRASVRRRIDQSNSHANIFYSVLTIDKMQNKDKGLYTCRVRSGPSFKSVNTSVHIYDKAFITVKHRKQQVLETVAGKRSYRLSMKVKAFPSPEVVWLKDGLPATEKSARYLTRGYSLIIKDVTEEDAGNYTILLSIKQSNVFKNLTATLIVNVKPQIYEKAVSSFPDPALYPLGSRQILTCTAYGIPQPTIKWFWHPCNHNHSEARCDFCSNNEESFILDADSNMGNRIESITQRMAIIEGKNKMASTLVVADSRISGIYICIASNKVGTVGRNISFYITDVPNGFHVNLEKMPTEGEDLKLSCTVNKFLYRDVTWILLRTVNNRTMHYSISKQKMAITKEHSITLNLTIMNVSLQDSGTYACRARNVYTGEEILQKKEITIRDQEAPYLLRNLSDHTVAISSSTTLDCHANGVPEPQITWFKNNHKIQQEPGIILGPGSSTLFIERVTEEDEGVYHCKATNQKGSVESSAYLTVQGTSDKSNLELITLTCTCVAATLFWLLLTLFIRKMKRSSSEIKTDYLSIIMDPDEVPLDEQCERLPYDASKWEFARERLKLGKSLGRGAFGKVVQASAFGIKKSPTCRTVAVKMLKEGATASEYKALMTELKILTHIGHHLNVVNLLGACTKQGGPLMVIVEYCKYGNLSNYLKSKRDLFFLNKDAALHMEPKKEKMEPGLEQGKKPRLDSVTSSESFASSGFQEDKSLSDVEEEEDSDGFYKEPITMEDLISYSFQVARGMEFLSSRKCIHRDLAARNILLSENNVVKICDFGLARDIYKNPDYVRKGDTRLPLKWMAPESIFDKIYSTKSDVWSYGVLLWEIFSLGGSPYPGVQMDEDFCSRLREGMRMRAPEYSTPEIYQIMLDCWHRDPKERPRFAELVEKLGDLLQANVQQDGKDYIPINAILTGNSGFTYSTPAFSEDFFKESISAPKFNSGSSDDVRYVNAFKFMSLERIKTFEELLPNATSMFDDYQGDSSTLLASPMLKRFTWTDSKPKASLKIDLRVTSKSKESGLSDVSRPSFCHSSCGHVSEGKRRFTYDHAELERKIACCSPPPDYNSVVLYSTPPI
SMILES,tested on,test,system,conditions,scale,measurement,result
CS(C)(=O)=Nc1ccc(-c2ccc(-c3nc4cc(O[C@@H]5CO[C@H]6[C@@H]5OC[C@H]6O)[nH]c4cc3F)cc2)cc1,"GABA-A receptor; GABA-A site (alpha1/beta2 interface), with gamma-2 subunit (Homo sapiens, UniProt P14867+P47870)",agonist radioligand binding,,10 µM,,inhibition,-13%
COc1ccccc1-c1n[nH]c2nc(N[C@H]3CC[C@H](NS(=O)(=O)CC(C)C)CC3)ncc12,,"bead binding, competition bead pull-down, refers to: LINJ.34.0080",Leishmania donovani extract,10 µM,baseline: vehicle,relative abundance,0.98
CSCC[C@H](NC(=O)[C@@H](NC(=O)[C@H](CCC(N)=O)NC(=O)[C@H](CO)NC(=O)[C@@H](N)C(C)C)[C@@H](C)O)C(=O)N[C@@H](CCCNC(=N)N)C(=O)N[C@@H](CCC(N)=O)C(=O)N[C@H](C(=O)N[C@@H](C)C(=O)N[C@H](C(=O)N1CCC[C@H]1C(=O)N[C@@H](CC(C)C)C(=O)N[C@@H](CC(C)C)C(=O)N[C@@H](Cc1c[nH]c2ccccc12)C(=O)N[C@@H](Cc1ccccc1)C(=O)N[C@@H](Cc1c[nH]c2ccccc12)C(=O)N[C@H](C(=O)NCC(=O)N[C@@H](CO)C(=O)N[C@@H](CC(C)C)C(=O)NCCOCCOCCOCCOCCOCCOCCOCCOCCOCCOCCOCCOCCC(=O)N[C@@H](CS)C(N)=O)[C@@H](C)O)C(C)C)[C@@H](C)O,,phage binding,panel of 11 cancer lines,selectivity at least 20,,number of cell lines,3
COc1ccccc1-c1n[nH]c2nc(NC3CCN(C(=O)Cc4ccc(F)cc4F)CC3)ncc12,,"bead binding, competition bead pull-down, refers to: LINJ.27.2350",Leishmania donovani extract,10 µM,baseline: vehicle,relative abundance,0.94
CN[C@@H]1C[C@H]2O[C@@](C)([C@@H]1OC)n1c3ccccc3c3c4c(c5c6ccccc6n2c5c31)C(=O)NC4,,annexin V flow cytometry,"pancreatic islet cells, mouse","1 µM, 24 h",,live cells,65.4%
CC(C)C[C@@H]1NC(=O)[C@@H](Cc2c[nH]c3ccccc23)NC(=O)[C@H](CCCNC(=N)N)NC(=O)[C@@H](CCC(=O)O)NC(=O)[C@H](CCC(N)=O)NC(=O)[C@@H](CCC(=O)O)NC(=O)[C@H](CCCNC(=N)N)NC(=O)[C@@H](Cc2c[nH]c3ccccc23)NC1=O,,"Luminex, refers to: M-CSF","LDLr-/- mice, Western diet, liver","dose not given, 4 weeks",,cytokine level,200 ± 70 pg/g tissue
O=c1n(CCNCCOS(=O)(=O)c2ccccc2)c(=O)n(S(=O)(=O)c2ccccc2)c(=O)n1S(=O)(=O)c1ccccc1,,DPPH scavenging,,31.25 µg/mL,,inhibition,39.1%
O=C1NC2(CC2)COc2ncc(F)cc2[C@H]2COCCN2c2ccn3ncc1c3n2,,,"Sprague-Dawley rat, male, serum","oral, 2.5 mg/kg/day, 4 weeks daily, end of treatment",,pancreatic amylase activity,2040 ± 320 U/L
Cc1ccc(C2=CC(C)(C)Oc3ccc(-c4ccc(-c5ccc(C(=O)O)cc5)[nH]4)cc32)cc1,,,CD1 mouse male,"oral, dose not given",,time to infertility,≤ 4 weeks
Cc1ccc(S(=O)(=O)N2CC2C(=O)N(C)C)cc1 (stereo not shown),,,"mouse, Lewis lung carcinoma","intraperitoneal, 170 mg/kg, 16 doses, day 13",,tumour volume,790 mm3
CN(C)[C@H]1C[C@@]23CC[C@@]4(O2)C(=CC[C@]2(C)[C@@H](c5ccc6ccncc6c5)CC[C@H]24)C=C3[C@@H](O)[C@@H]1O,"NEK3 (Homo sapiens, UniProt P51956)","ATP probe labelling, inhibitor, KiNativ profiling",,1 µM,,inhibition,3.3%
O=S(=O)(N[C@H]1CCO[C@@H](C2c3ccc(F)cc3CCc3cc(F)ccc32)C1)c1ccc(OC(F)(F)F)cc1,,,"mouse, orthotopic D425 medulloblastoma","oral gavage, 75 mg/kg twice daily",,median survival,14.5 days
CC(C)[C@H]1NC(=O)C[C@H]2/C=C/CCSSC[C@@H](NC1=O)C(=O)N[C@H](Cc1cccc3ccccc13)C(=O)NCC(=O)O2,"FLT1 (Homo sapiens, UniProt P17948)","enzyme activity, inhibitor",,10 µM,,inhibition,2.3%
O=C(NCc1cc(F)cc(F)c1)[C@@]1(O)CCN(c2ccc3[nH]ccc3c2)C1=O,,,sample D PDX mouse,"dose not given, RTV endpoint 500%",,median survival time,22.5 days
CC(C)(C)C(=O)OCOP(=O)(OCOC(=O)C(C)(C)C)C1CCCN(O)C1=O (stereo not shown),HCC 2998,,,,,GI50,0.446 µM
O=C(O)c1ccc(-c2nc(-c3ccccc3Cl)c3sccn23)cc1,,,C57BL/6 mice,"dose not given, days 10 and 11 pooled, basal hematopoiesis",,platelet count change,88.9% and 116% and 81.6% and 89.8% and 97% and 120% and 110%

# Some of these lines once more:
SMILES,tested on,test,system,conditions,scale,measurement,result
CN(C)[C@H]1C[C@@]23CC[C@@]4(O2)C(=CC[C@]2(C)[C@@H](c5ccc6ccncc6c5)CC[C@H]24)C=C3[C@@H](O)[C@@H]1O,"NEK3 (Homo sapiens, UniProt P51956)","ATP probe labelling, inhibitor, KiNativ profiling",,1 µM,,inhibition,3.3%
